Results collected from several papers.
Parts stem from different laboratories: compare values within a part only.
Sequence of UniProt Q14653 (whole entry, unmodified, looked up): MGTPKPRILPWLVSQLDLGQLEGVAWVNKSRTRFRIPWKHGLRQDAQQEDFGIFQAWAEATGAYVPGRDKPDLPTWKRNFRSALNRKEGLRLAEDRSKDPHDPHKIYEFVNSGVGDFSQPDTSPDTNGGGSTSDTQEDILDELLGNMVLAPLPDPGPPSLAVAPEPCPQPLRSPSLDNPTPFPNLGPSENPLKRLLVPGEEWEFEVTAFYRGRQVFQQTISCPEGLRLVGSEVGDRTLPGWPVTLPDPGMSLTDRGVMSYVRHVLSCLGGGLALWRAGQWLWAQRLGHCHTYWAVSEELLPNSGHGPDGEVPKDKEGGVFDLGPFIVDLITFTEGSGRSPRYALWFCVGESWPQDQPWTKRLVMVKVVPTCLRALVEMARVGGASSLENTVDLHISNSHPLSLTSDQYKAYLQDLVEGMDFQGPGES

Sample 1
Target: Histone acetyltransferase KAT6A, winged helix 2, GST fusion (KAT6A, Homo sapiens, UniProt Q92794, residues 85-181)
Method: protein binding microarray
Molecule type: double-stranded DNA, one strand shown
Medium: in vitro
Concentration: not given
Notes: 8-mer, flanks averaged, mean of 2 arrays, mostly near background
Reference: not given
Reading: higher = stronger binding
Construct (chain): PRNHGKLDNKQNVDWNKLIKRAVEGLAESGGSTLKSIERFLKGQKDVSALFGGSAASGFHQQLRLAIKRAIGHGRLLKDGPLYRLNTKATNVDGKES
Strand | E-score
AAGGCGAA | -0.0513
ATCGGTTC | 0.0526
ACACGAGC | 0.0086

Sample 2
Target: Sal-like protein 4, full length isoform A (SALL4, Homo sapiens, UniProt Q9UJQ4, residues 1-1053)
Sequence of UniProt Q9UJQ4 (whole entry, looked up): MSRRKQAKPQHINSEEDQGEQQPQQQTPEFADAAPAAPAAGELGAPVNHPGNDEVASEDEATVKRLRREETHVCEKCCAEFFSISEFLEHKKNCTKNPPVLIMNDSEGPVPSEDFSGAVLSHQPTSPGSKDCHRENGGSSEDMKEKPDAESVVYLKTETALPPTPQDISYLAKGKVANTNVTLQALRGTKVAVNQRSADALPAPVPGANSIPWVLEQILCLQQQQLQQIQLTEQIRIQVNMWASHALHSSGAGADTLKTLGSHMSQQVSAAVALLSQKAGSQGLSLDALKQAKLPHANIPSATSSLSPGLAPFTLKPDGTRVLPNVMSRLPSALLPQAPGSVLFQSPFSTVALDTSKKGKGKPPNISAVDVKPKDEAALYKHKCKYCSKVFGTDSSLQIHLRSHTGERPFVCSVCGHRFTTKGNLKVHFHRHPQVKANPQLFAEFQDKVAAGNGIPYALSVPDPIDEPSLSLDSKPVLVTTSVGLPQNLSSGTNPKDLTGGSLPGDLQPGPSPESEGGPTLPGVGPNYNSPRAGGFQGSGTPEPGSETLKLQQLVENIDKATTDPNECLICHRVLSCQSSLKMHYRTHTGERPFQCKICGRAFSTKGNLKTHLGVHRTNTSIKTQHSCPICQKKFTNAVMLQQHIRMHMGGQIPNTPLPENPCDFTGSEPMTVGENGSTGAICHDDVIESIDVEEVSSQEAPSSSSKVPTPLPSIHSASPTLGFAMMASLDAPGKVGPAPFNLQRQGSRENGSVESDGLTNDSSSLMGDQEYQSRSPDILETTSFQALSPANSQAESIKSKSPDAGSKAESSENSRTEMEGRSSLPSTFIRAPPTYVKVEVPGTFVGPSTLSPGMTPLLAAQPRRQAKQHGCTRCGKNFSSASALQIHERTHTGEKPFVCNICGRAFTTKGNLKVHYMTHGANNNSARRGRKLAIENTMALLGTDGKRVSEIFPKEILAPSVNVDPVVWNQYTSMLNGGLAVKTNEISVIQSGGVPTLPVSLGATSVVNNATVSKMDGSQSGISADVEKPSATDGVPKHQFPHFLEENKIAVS
Method: universal PBM
Molecule type: double-stranded DNA, one strand shown
Medium: in vitro
Concentration: 600 nM
Notes: 8-mer, flanks averaged, mean of replicates
Reading: higher = stronger binding
Strand | E-score
ATGAGCGC | -0.0677
ATGACGGA | 0.0827
TAAGACAA | 0.183

Further values, each from its own experiment
Substance | target | test | system | setting | scale | quantity | value
PhoQ, residues 284 288 289 292 302 303 SLKLQV | PhoP, residues 12 14 15 18 19 LWHVM (Escherichia coli, UniProt P23836) | Sort-seq, refers to: YFP reporter | E. coli | PhoQ-PhoP variant library, added: 10 µM Mg2+ | reference: high Mg2+ state, higher = stronger signaling | fold induction | 8.2
GCCTAGCACTTCGGACTGGGTTTCGGTTAGTGCTAGGTCTTGATTCGCTTGACGCTGCTG | Interferon regulatory factor 3, full length, phosphomimetic (IRF3, Homo sapiens, UniProt Q14653, residues 1-427, S386D/S396D/S398D/S402D/T404D/S405D) | protein-binding microarray | double-stranded DNA, one strand shown, in vitro | 2540 nM top, 60-bp whole probe, added: salmon DNA 0.4 mg/ml | reference: random background probes, higher = stronger binding | fitted relative affinity | 2.86 z-score

A few entries again (further values, each from its own experiment):
Substance | target | test | system | setting | scale | quantity | value
GCCTAGCACTTCGGACTGGGTTTCGGTTAGTGCTAGGTCTTGATTCGCTTGACGCTGCTG | Interferon regulatory factor 3, full length, phosphomimetic (IRF3, Homo sapiens, UniProt Q14653, residues 1-427, S386D/S396D/S398D/S402D/T404D/S405D) | protein-binding microarray | double-stranded DNA, one strand shown, in vitro | 2540 nM top, 60-bp whole probe, added: salmon DNA 0.4 mg/ml | reference: random background probes, higher = stronger binding | fitted relative affinity | 2.86 z-score
